Measurements collected from several papers.
A part holds a random share of what one study measured.

Sample 1 — technique: RNA Bind-n-Seq; form: RNA; medium: in vitro; tested at: 365 nM; baseline: no-protein control; direction: higher = stronger binding; quantity: RBNS enrichment (R)
Target: RNA binding protein fox-1 homolog 2, RRM domain, GST-SBP tag (RBFOX2, Homo sapiens, UniProt O43251-10, residues 100-194)
Setting: natural RNA segment, single round, ends assumed
Construct (chain): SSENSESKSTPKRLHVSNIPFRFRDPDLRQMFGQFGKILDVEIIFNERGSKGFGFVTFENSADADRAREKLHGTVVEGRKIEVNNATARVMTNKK
GGGAGUUCUACAGUCCGACGAUCAGUCAGGAGUCAAACUGCUGCCUUUAAAAAAACACACAAAAAGCUGAUUCAGUUCAAAAUUAAUGCAAAUCUUUCAAAACUGGGUUUCUGAUACUUGUGGAUGUUUUUCUUGGAAUUCUCGGGUGCCAA: 0.284
GGGAGUUCUACAGUCCGACGAUCGACAGAAAUGUCUCUGGGAUCUGUGGCUGGCUUGCCCCGGGCAUCUCUCCUUUAAGCUCAAGUUUUGAACUCUCUGCGGUUUUCCACCCCUGCCUUCUCAGCCACAUGCUUGGAAUUCUCGGGUGCCAA: 0.276
GGGAGUUCUACAGUCCGACGAUCAAUGAGAUUUAACUUGUUGAAUGUGUUCUGUGAGAUGGGGUGUACCACGACUAUGGUGGGAAAAACCAUUUUUUAAAGGACACAUACGAUGGUGUAUCUCUCUGUGUAAUUGGAAUUCUCGGGUGCCAA: 0.296

Sample 2 — technique: universal PBM; form: double-stranded DNA, one strand shown; medium: in vitro; tested at: not given; direction: higher = stronger binding; quantity: E-score
Target: Sal-like protein 4, full length isoform B (SALL4, Homo sapiens, UniProt Q9UJQ4-2, residues 1-616)
Setting: 8-mer, flanks averaged, mean of replicates
GCAATGGA: 0.0176
ATGGACGG: 0.00192
CAGTGGCG: -0.324

Sample 3 — technique: protein-binding microarray; form: double-stranded DNA, one strand shown; medium: in vitro; tested at: 2200 nM top; setting: 60-bp whole probe; with: salmon DNA 0.4 mg/ml; baseline: random background probes; direction: higher = stronger binding; quantity: fitted relative affinity
Target: Interferon regulatory factor 7, full length, phosphomimetic (IRF7, Homo sapiens, UniProt Q92985, residues 1-503, S471D/S472D/S475D/S476D/S477D/S483D/S484D/S487D)
Residues (chain): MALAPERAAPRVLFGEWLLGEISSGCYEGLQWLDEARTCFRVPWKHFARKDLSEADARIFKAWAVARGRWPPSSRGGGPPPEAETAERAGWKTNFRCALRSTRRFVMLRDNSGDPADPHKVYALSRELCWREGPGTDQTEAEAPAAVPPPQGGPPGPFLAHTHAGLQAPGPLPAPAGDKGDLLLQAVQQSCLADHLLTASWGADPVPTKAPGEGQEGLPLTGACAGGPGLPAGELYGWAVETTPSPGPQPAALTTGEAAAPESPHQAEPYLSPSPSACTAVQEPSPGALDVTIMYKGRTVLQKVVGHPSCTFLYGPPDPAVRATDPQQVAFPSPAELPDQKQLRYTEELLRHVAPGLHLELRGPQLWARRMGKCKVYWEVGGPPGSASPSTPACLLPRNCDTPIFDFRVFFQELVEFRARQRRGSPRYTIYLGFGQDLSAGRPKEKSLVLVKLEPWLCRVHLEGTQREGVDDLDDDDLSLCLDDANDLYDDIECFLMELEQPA
GCCTAGCACGACGAACTGGGCTTTCGAGACGTGCTAGTCTTGATTCGCTTGACGCTGCTG: 0.942 z-score
GCCTAGCACTTAGCTTTCGACACTGGGTTAGTGCTAGTCTTGATTCGCTTGACGCTGCTG: 2.52 z-score
GCCTAGCACTCACCCCTTGCTTTCCAACTGTGCTAGGTCTTGATTCGCTTGACGCTGCTG: 2.16 z-score
GCCTAGCACGACGATCTCAGTATCGTGACGTGCTAGGTCTTGATTCGCTTGACGCTGCTG: 0.174 z-score

Sample 4 — technique: protein binding microarray; form: double-stranded DNA, one strand shown; medium: in vitro; tested at: not given; baseline: not given; direction: higher = stronger binding; quantity: E-score
Target: Histone acetyltransferase KAT6A, winged helix 1, GST fusion (KAT6A, Homo sapiens, UniProt Q92794, residues 1-85)
Setting: 8-mer, flanks averaged, mean of 2 arrays, mostly near background
Construct (chain): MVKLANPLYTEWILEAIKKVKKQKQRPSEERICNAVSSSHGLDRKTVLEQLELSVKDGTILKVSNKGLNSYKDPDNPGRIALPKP
AACCTAGT: -0.117
CGATTCGC: 0.107
AACGGTCA: 0.205
CTAGGTCA: -0.166
CCGTCGAC: 0.226
GGATGTAC: -0.0438
AACAGAAC: -0.104
CGTCCATC: 0.0131
CAATTGAC: -0.0598
AACTAGTT: -0.149

Some of these lines once more (sample 4):
CTAGGTCA: -0.166
CAATTGAC: -0.0598
AACAGAAC: -0.104
